Assay results pooled from the literature.
Lines come from different studies, so protocols differ. ± gives the spread as reported.

COc1ccc(NC(=O)CSc2nnnn2C)cc1 gave a logD of 1.23 (octanol/buffer; pH 7.4).
The logD of CCc1ccccc1-c1c(C)[nH]c2cc(OC)c(Cl)cc2c1=O is reported as 2.9 (chromatographic; pH 7.4).
CC1(C)NC(=O)N(c2ccc(F)c(C(C)(F)F)c2)C1=O gave a logD of 2.6 (chromatographic HPLC; pH 7.4).
COC(=O)/C=C/C(=O)NNC(=O)CCc1ccccc1C(=O)N[C@H](C)c1cccc(-c2cncnc2)c1 has a logD of 1.8.
Cc1cnc(NC(=O)C2=C(O)c3ccccc3S(=O)(=O)N2C)s1 gave a logD of 0.8 (miniaturised shake-flask; 1-octanol/water).
For COc1cc2[nH]c(C)c(-c3ccncc3)c(=O)c2cc1Cl, the logD was 1.8 (chromatographic; pH 7.4).
COc1ccnc(C(=O)NC2CCCCC2)c1O has a logD of 1.6 (miniaturised shake-flask; 1-octanol/water).
With COc1cc2[nH]c(C)c(-c3ccc(N(C)C)nc3)c(=O)c2cc1Cl the logD was 1.9 (chromatographic; pH 7.4).
With CN1C(C(=O)Nc2nccs2)=C(O)c2ccccc2S1(=O)=O the logD was -0.9 (miniaturised shake-flask; 1-octanol/water).
Fc1ccc(N2CCNCC2COc2ccc3ccccc3c2)cc1 (stereo not drawn) gave a logD of 3.46 ± 0.05 (experimental partition; pH 7.4).
CCCN(C)Cc1cc(-c2[nH]c3cccc(F)c3c(=O)c2C)ccc1Cc1ccc(OC(F)(F)F)cc1 gave a logD of 5.78 (pH 7.4).
With COc1cc2[nH]c(C)c(-c3ccc(F)cc3)c(=O)c2cc1Cl the logD was 2.6 (chromatographic; pH 7.4).
The logD of CCOC(=O)N1C[C@@H](C2CCCC2)N[C@@H](c2cc(Cl)cc(Cl)c2)C1 is reported as > 4.7 (shake-flask, 1-octanol/buffer; pH 7.4).
For CCOC(=O)CNC(=O)c1ncccc1O, the logD was 0.2 (miniaturised shake-flask; 1-octanol/water).
Cc1cc(Nc2ccc(C(F)(F)F)cc2)c2ccccc2n1 gave a logD of 3.8.
For CC(C)CC(=O)N[C@H](C(=O)N[C@H](C(=O)N[C@@H](CC(C)C)[C@@H](O)CC(=O)N[C@@H](C)C(=O)N[C@@H](CC(C)C)[C@@H](O)CC(=O)NCCCC[C@H](NC(=O)CCOCCOCCNC(=O)CN1CCN(CC(=O)O)CCN(CC(=O)O)CC1)C(=O)O)C(C)C)C(C)C [gallium-68 labelled], the logD was -1.66 ± 0.18 (PBS).
With CCn1c(SCC(=O)Nc2cccc(C(C)=O)c2)nnc1-c1ccncc1 the logD was 1.6 (octanol/buffer; pH 7.4).
For FC(F)(F)c1cc(Nc2ncnc3ccc(-c4cccc(N5CCOCC5)c4)cc23)ccc1Cl, the logD was > 4.1 (shake flask; 1-octanol/phosphate buffer; pH 7.4).
The logD of Cc1cccc([C@H]2N[C@@H](C3CCCCC3)CO[C@@H]2C)c1 is reported as > 4.7 (shake-flask, 1-octanol/buffer; pH 7.4).
CN1C(C(=O)Nc2ccc(F)cn2)=C(O)c2ccccc2S1(=O)=O gave a logD of 0.3 (miniaturised shake-flask; 1-octanol/water).
COc1cc2[nH]c(C)c(-c3c(C)noc3C)c(=O)c2cc1Cl has a logD of 1.8 (chromatographic; pH 7.4).
With CC(C)(C)c1ccc([C@H]2COC[C@H](c3ccc(C#N)cc3)N2)cc1 the logD was > 4.7 (shake-flask, 1-octanol/buffer; pH 7.4).
With Cc1nonc1OCCNc1cc(N2CCOCC2)ccc1[N+](=O)[O-] the logD was 2.87 (octanol/buffer; pH 7.4).
COc1cc2[nH]c(C)c(-c3ccccc3OC(F)(F)F)c(=O)c2cc1Cl has a logD of 3 (chromatographic; pH 7.4).
N=C(N)NS(=O)(=O)c1ccc(N/C=C2\C(=O)Nc3ccccc32)cc1 has a logD of 1.72 (octanol/buffer; pH 11).
COc1cc2[nH]c(C)c(-c3ccccc3CO)c(=O)c2cc1Cl gave a logD of 1.8 (chromatographic; pH 7.4).
CN1CCN(c2cccc(-c3ccc4ncnc(Nc5ccc(Cl)c(Cl)c5)c4c3)c2)CC1 has a logD of > 4.1 (shake flask; 1-octanol/phosphate buffer; pH 7.4).
The logD of Cc1ccc(N(C)c2ccc(NC(=O)CN(C)c3ccccc3N3CCCC3=O)cc2)cc1 is reported as 4.6 (shake-flask).
With CCOC(=O)N1C[C@@H](c2ccc(C(F)(F)F)cc2)N[C@@H](C(CC)CC)C1 the logD was > 4.7 (shake-flask, 1-octanol/buffer; pH 7.4).
With Cc1ccc(Oc2ccc(NC(=O)CN(C)c3ccccc3N3CCCC3=O)cc2)cc1 the logD was 4.6 (shake-flask).
The logD of COc1cc(OC)c(NC(=O)CSc2nnc(-c3ccncc3)n2-c2ccccc2)cc1Cl is reported as 3.17 (octanol/buffer; pH 7.4).
CC(C)(C)c1ccc([C@@H]2COC[C@H](c3ccc(Cl)cc3)N2)cc1 gave a logD of > 4.7 (shake-flask, 1-octanol/buffer; pH 7.4).
COC(=O)C(C)n1nc(Cn2cc3cc(OCCF)c(Cl)cc3n2)c2ccccc2c1=O (racemic) gave a logD of 2.75 ± 0.1 (pH 7.4, room temperature).
With O=C(NO)[C@H]1COC(c2ccc(OC(F)(F)F)c(Cl)c2)=N1 the logD was 2.57 (octanol/buffer; pH 7.4).
For Cc1c([C@@H]2COC[C@H](c3ccc(-c4ccccc4)cc3)N2)cnn1-c1ccccc1, the logD was > 4.7 (shake-flask, 1-octanol/buffer; pH 7.4).
With O=C(O)CNC(=O)c1nc(Cl)c2ccccc2c1O the logD was 0.7 (miniaturised shake-flask; 1-octanol/water).
The logD of O=C(O)c1cc(-c2ccc(-n3ccnn3)cc2)c2ccc(-c3ccc(C(F)(F)F)cc3)cc2c1 is reported as 0.6 (HPLC retention; pH 7.4, chromatographic logD).
C[C@@H](NC(=O)c1ccccc1CCC(=O)NNC(=O)/C=C/C(=O)OCCC(F)(F)F)c1cccc2ccccc12 has a logD of 3.
O=C(NC1CCCCC1)c1ncccc1O gave a logD of 3.5 (miniaturised shake-flask; 1-octanol/water).
With C[C@@H](NC(=O)c1ccccc1CCC(=O)NNC(=O)/C=C/C(=O)OCc1nccs1)c1cccc2ccccc12 the logD was 3.1.
With COc1ccccc1CNC(=O)c1cc(S(=O)(=O)N2CCc3ccccc3C2)c(C)n1C the logD was 3.1.
The logD of Cc1cc(Cl)cc2sc(N(CCCn3ccnc3)C(=O)c3ccco3)nc12 is reported as 3.83.
For CCOC(=O)N1C[C@@H](c2ccc(Cl)cc2)N[C@@H](c2cc(Cl)cc(Cl)c2)C1, the logD was > 4.7 (shake-flask, 1-octanol/buffer; pH 7.4).
COc1cc2[nH]c(C)c(-c3c(C)cc(C)cc3C)c(=O)c2cc1Cl has a logD of 3.3 (chromatographic; pH 7.4).
O=C1CCC(N2C(=O)c3cccc(NCC(=O)OCCCCc4cn(CCCCCCN5CCc6c(c7ccccc7n6Cc6ccc(C(=O)NO)cc6)C5)nn4)c3C2=O)C(=O)N1 (stereo not drawn) has a logD of 2.3 (HPLC-based method; pH 7.4).
COc1cc([N+](=O)[O-])ccc1NC(=O)CN1CCOCC1 gave a logD of 2.04 (octanol/buffer; pH 7.4).
For Brc1cccc([C@H]2COC[C@H](C3CCCCC3)N2)c1, the logD was > 4.7 (shake-flask, 1-octanol/buffer; pH 7.4).
With C[C@@H](NC(=O)c1ccccc1CCC(=O)NNC(=O)/C=C/C(=O)OC1CCC1)c1cccc2ccccc12 the logD was 3.9.
With O=C(O)c1cc(-c2ccc(-c3c[nH]nn3)cc2)c2ccc(-c3ccc(C(F)(F)F)cc3)cc2c1 the logD was 0.35 ± 0.02 (HPLC retention; pH 7.4, chromatographic logD).
The logD of Cn1c(Cc2ccccc2)nnc1Sc1ccc([N+](=O)[O-])cc1C(=O)N1CCOCC1 is reported as 1.45 (octanol/buffer; pH 7.4).
With CN(c1ccc(F)cc1)c1c(-c2ccc(F)cn2)nc2ccccn12 the logD was 2.9 (pH 7.4).

A few entries again:
COc1cc2[nH]c(C)c(-c3c(C)cc(C)cc3C)c(=O)c2cc1Cl has a logD of 3.3 (chromatographic; pH 7.4).
The logD of O=C(O)c1cc(-c2ccc(-n3ccnn3)cc2)c2ccc(-c3ccc(C(F)(F)F)cc3)cc2c1 is reported as 0.6 (HPLC retention; pH 7.4, chromatographic logD).
For CCOC(=O)N1C[C@@H](c2ccc(Cl)cc2)N[C@@H](c2cc(Cl)cc(Cl)c2)C1, the logD was > 4.7 (shake-flask, 1-octanol/buffer; pH 7.4).
With O=C(O)CNC(=O)c1nc(Cl)c2ccccc2c1O the logD was 0.7 (miniaturised shake-flask; 1-octanol/water).
